Published values collected from several papers.
Protocols differ between the studies behind these lines. “And” joins repeats or separate records; there may be more than shown.
T1: itself; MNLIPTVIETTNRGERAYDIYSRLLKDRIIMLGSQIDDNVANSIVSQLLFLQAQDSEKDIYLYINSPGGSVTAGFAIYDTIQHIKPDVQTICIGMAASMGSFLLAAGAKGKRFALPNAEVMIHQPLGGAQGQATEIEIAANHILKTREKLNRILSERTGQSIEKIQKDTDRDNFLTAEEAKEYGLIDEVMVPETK
T2: itself; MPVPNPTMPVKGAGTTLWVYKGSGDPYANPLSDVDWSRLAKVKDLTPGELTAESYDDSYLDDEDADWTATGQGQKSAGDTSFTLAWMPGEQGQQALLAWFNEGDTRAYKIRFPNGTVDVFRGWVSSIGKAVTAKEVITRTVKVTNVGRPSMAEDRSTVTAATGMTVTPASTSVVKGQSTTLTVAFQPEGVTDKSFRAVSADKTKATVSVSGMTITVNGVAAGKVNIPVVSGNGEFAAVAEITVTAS
B1: clpP 1-195 (Staphylococcus aureus, UniProt Q2G036); chain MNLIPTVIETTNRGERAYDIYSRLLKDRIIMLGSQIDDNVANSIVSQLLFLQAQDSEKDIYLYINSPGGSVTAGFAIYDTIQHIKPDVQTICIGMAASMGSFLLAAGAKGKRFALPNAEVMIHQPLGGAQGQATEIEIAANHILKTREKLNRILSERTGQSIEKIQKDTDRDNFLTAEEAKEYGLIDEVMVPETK

Substance = gor L416F (Pseudomonas sp. JR-1); target or system = itself; test = SEC; setting = pH 7.5, 4 °C; endpoint = subunits per oligomer; value = 2
Substance = S HBsAg C124R (hepatitis B virus); target or system = itself; test = non-reducing SDS-PAGE Western blot; test system = Huh7, lysate; endpoint = subunits per oligomer; value = 2
Substance = UreE-F E94A (Klebsiella aerogenes); target or system = itself; test = SEC; endpoint = subunits per oligomer; value = 2
Substance = encapsulin (Klebsiella pneumoniae); target or system = itself; test = cryo-EM; endpoint = subunits per oligomer; value = 60
Substance = PCNA trimer (Candida albicans); target or system = itself; test = SEC; endpoint = subunits per oligomer; value = 3
Substance = RNA-dependent RNA polymerase fragment (Aspergillus fumigatus); target or system = itself; test = cryo-EM structure; endpoint = subunits per oligomer; value = 10
Substance = Ec78 retron ABC ATPase E396Q (Escherichia coli); target or system = itself; test = cryo-EM; endpoint = subunits per oligomer; value = 4
Substance = gor L416Q (Pseudomonas sp. JR-1); target or system = itself; test = SEC; setting = pH 7.5, 4 °C; endpoint = subunits per oligomer; value = 2
Substance = porB L3 loop shortened (Neisseria gonorrhoeae); target or system = itself; test = cross-linking; endpoint = subunits per oligomer; value = 2
Substance = Aca11 fragment (Streptococcus sp); target or system = itself; test = SEC; endpoint = subunits per oligomer; value = 2
Substance = FraB (Salmonella); target or system = itself; test = native MS; endpoint = subunits per oligomer; value = 2
Substance = UreE-F Q171A (Klebsiella aerogenes); target or system = itself; test = SEC; endpoint = subunits per oligomer; value = 2
Substance = cmeC (Campylobacter jejuni); target or system = itself; test = cross-linking; endpoint = subunits per oligomer; value = 3
Substance = dye-decolorizing peroxidase (Klebsiella pneumoniae); target or system = itself; test = SEC; endpoint = subunits per oligomer; value = 6
Substance = HBV core protein -10 to 149 C48A/C107A, intramolecular disulfide (hepatitis B virus); target or system = itself; test = AUC; setting = oxidized, no DTT; endpoint = subunits per oligomer; value = 2
Substance = UreE-F Y23A (Klebsiella aerogenes); target or system = itself; test = SEC; endpoint = subunits per oligomer; value = 2
Substance = GluA4/TARPγ2 (Rattus norvegicus/Homo sapiens); target or system = itself; test = cryo-EM; endpoint = subunits per oligomer; value = 4
Substance = bamA (Fusobacterium nucleatum); target or system = itself; test = cryo-EM; endpoint = subunits per oligomer; value = 2
Substance = AnmK (Pseudomonas aeruginosa); target or system = itself; test = AUC; setting = 4 °C; endpoint = subunits per oligomer; value = 2 and 4
Substance = CapV apo, wild type (Acinetobacter baumannii); target or system = itself; test = cryo-EM; endpoint = subunits per oligomer; value = 4
Substance = Mvp/Tep1/Parp4 half vault (Rattus norvegicus); target or system = itself; test = scanning transmission EM; endpoint = subunits per oligomer; value = 2
Substance = UreE-F P19A (Klebsiella aerogenes); target or system = itself; test = SEC; endpoint = subunits per oligomer; value = 2
Substance = oseR (Streptococcus suis); target or system = itself; test = non-reducing SDS-PAGE; endpoint = subunits per oligomer; value = 2
Substance = PorB (Neisseria gonorrhoeae); target or system = itself; test = cross-linking; endpoint = subunits per oligomer; value = 3
Substance = B1 (clpP 1-195); target or system = T1, itself; test = crystal structure; endpoint = subunits per oligomer; value = 14
Substance = HBV core protein -10 to 149 C48A/C107A/G123A, intramolecular disulfide (hepatitis B virus); target or system = itself; test = AUC; setting = oxidized, no DTT; endpoint = subunits per oligomer; value = 2
Substance = S HBsAg (hepatitis B virus); target or system = itself; test = non-reducing SDS-PAGE Western blot; test system = Huh7, lysate; endpoint = subunits per oligomer; value = 2
Substance = gpV tail tube protein (bacteriophage lambda, UniProt P03733); target or system = T2, itself; test = cryo-EM; endpoint = subunits per oligomer; value = 6
Substance = gor F443L (Pseudomonas sp. JR-1); target or system = itself; test = SEC; setting = pH 7.5, 4 °C; endpoint = subunits per oligomer; value = 2
Substance = UreE-F G21A (Klebsiella aerogenes); target or system = itself; test = SEC; endpoint = subunits per oligomer; value = 2
Substance = gor full length, wild type (Pseudomonas sp. JR-1); target or system = itself; test = SEC; setting = pH 7.5, 4 °C; endpoint = subunits per oligomer; value = 2
Substance = UreE-F S26A (Klebsiella aerogenes); target or system = itself; test = SEC; endpoint = subunits per oligomer; value = 2
Substance = HBV core protein -10 to 151 C48A/C107A, intramolecular disulfide (hepatitis B virus); target or system = itself; test = AUC; setting = oxidized, no DTT; endpoint = subunits per oligomer; value = 2
Substance = comFB (Vibrio cholerae); target or system = itself; test = mass photometry; setting = without c-di-GMP; endpoint = subunits per oligomer; value = 4
Substance = insulin human; test = item: NR4A1 mRNA; test system = uninfected mouse, brain; setting = i.p., dose not given; how to read = reference: PBS; endpoint = fold change; value = 1.25
Substance = UreE-F S224A (Klebsiella aerogenes); target or system = itself; test = SEC; endpoint = subunits per oligomer; value = 2
Substance = F-BclA C-terminal domain (Bacillus thuringiensis subsp. kurstaki); target or system = itself; test = crystal structure; endpoint = subunits per oligomer; value = 3
Substance = gor F443E (Pseudomonas sp. JR-1); target or system = itself; test = SEC; setting = pH 7.5, 4 °C; endpoint = subunits per oligomer; value = 2
Substance = Dengue envelope protein soluble ectodomain, no stem/transmembrane (Dengue virus serotype 2); target or system = itself; test = liposome sucrose gradient sedimentation; test system = liposomes; endpoint = subunits per oligomer; value = 3
Substance = dye-decolorizing peroxidase hexamer; target or system = itself; test = SEC; endpoint = subunits per oligomer; value = 6

For quick reference, copied from above:
Substance = gor L416Q (Pseudomonas sp. JR-1); target or system = itself; test = SEC; setting = pH 7.5, 4 °C; endpoint = subunits per oligomer; value = 2
Substance = porB L3 loop shortened (Neisseria gonorrhoeae); target or system = itself; test = cross-linking; endpoint = subunits per oligomer; value = 2
Substance = Aca11 fragment (Streptococcus sp); target or system = itself; test = SEC; endpoint = subunits per oligomer; value = 2
